Assay results gathered from unrelated publications.
Every numbered part comes from another study and shows a few of its results, in no order.

Sample 1 — technique: protein-binding microarray; form: double-stranded DNA, one strand shown; matrix: in vitro; concentration: 250 nM; setting: 60-bp whole probe; added: salmon DNA 0.4 mg/ml; relative to: random background probes; direction: higher = stronger binding; shared flanks, not repeated: GCCTAGCAC … GTCTTGATTCGCTTGACGCTGCTG
Target: Interferon regulatory factor 7, full length, phosphomimetic (IRF7, Homo sapiens, UniProt Q92985, residues 1-503, S101K/S471D/S472D/S475D/S476D/S477D/S483D/S484D/S487D)
Residues (chain): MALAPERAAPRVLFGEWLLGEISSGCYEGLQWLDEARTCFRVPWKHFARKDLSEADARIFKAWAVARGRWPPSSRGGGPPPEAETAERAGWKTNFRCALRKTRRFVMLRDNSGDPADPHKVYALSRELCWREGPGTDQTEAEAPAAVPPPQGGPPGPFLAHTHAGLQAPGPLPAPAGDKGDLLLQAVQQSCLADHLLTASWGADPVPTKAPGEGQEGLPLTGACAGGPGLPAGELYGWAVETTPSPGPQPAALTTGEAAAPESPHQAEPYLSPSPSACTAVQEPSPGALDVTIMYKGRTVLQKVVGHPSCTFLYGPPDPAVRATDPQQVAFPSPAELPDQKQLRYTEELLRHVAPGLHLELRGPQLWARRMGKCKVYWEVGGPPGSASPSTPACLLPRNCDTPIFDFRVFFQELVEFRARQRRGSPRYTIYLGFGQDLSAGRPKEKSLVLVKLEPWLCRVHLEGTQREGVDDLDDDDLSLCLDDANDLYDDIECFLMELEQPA
Oligonucleotide	log fluorescence [z-score]
TTAGATTTAGGGTATCGATTAGTGCTA	0.445
TTAGGTTTCCTCATCCTTTAGTGCTAG	1.42
TCAACTTTCTACGTCTGACTGTGCTAG	0.336
GACAATTTCGGGTATCGAGACGTGCTA	1.25
GACGGTTTCGGTTCCGGGATGTGCTAG	12.5
TAAGGACTGCTTATCCTTTAGTGCTAG	0.346
TTAGAATTGGGGACTGGATTAGTGCTA	-0.342
ATAGATTTCGGGTTTCGATTAGTGCTA	8.21
GACGGTTGCGGTCTCGGGACGTGCTAG	-0.149
GACGAACTGGGGTTTTGAGACGTGCTA	-0.636
TGCATTTTTTTTTTCTACTTGTGCTAG	0.962
GACGATAGCAGACTGGAGACGTGCTAG	-0.678
GACGGTATCGGGACTGGGGATGTGCTA	-0.321
TTAGATCTCGGTCTCGATTAGTGCTAG	1.58
TTGGGTCTCCTTTTCCTTTAGTGCTAG	1.57
TTAGGACTGGGGTATCGGTGAGTGCTA	-0.462

Sample 2 — technique: RNA Bind-n-Seq; form: RNA; matrix: in vitro; concentration: 100 nM; relative to: input RNA pool; direction: higher = stronger binding
Target: RING finger protein unkempt homolog, zinc fingers 1-6, SBP tag (UNK, Homo sapiens, UniProt Q9C0B0, residues 30-357)
Sequence of UniProt Q9C0B0 (30-357, looked up): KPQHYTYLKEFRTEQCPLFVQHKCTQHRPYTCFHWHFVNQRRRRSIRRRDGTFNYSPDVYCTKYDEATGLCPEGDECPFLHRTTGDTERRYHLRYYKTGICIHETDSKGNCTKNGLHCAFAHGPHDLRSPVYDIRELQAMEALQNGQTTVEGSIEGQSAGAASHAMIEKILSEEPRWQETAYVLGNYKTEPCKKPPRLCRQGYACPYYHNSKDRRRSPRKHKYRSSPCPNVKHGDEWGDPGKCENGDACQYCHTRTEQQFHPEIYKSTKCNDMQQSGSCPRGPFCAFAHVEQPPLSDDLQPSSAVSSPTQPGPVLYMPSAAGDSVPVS
Setting: RNA with constant flanks, vertebrate orthologous sites, ends assumed
Shared flanks, not repeated: GGGAGUUCUACAGUCCGACGAUC … CAACAGAGGAUUGAGCAUCA
Oligonucleotide	bound/input enrichment
AAAUGAGCUGCUAGGGCAGUAAGAUGGGUUCCCUUUCAUCCCUCAAGGAAAAAAUCUGAAUGGAUUCCUUAACCAUCUAAGUAGGUUAGCUUUCCUGGGUAUUUUUGUUUUGUUUAGAUU	0.537 ratio
UACUUCCUCCAUUCUGAUUUGGAAACUGGUGAAAAAUGCCUGUGGUUAAAUUGUAAGUUUCCUCGCUAGCGUUAGGAGAGCCAGAAUUUUCCCACUGUUUAUUUUUAAUUUAAUAAAAGG	0.288 ratio
AUUCAAACCUGUGGUACCAUGGCCUCAUGUUGAAGGAGUAGAAGUGGACUUAGAGUCUAUUAGAAGAAAAAACAAGGCCAAAAAUGAACAAGAGCGCCAUGCUGGAGGAGAUAACCAGAA	0.36 ratio
CUUGUUUCUAUUGGUCUGUAAAUGUGUCCUAAAAAAAUCAGAGUUUAUUUAUAAACAGAAUAGUUUAUUUAAAGAAGUCUUUCCCCAUCCAUUUUGUGGUUUGCAUUAAUUCUGUGUUUC	0.267 ratio
CACAUCUGGUGAUAUUUGGCCUGGCCUUUCAGCUUAUGACAAUAGUCCCAGAUCACCCCAUAGUCCUUCACCUAUUGCUACACCACCUAGUCAGAGUUCAUCUUGCUCUGAUGCCCCCAU	0.851 ratio
GGCGUCAGGUGGGGGGAAUCCCAUGCCCUAGCCUUGCCUCCCUGCCCUGCCACCCGCUCCUAGUUAUUUUUUUUUAACCACCAUGUGAUUGAGGUCGGCGCUGUCUCCCCCGACCCGCUC	1.74 ratio
CAAAAAUGAACACCUAAAGGAAUUUUUUUUUCAUUUUUAAUUUUUCCCCUUAGACACAUUUAGACAUCCUUUUUUUCCAGGCAGAUCAUUCAGAAUGUGCGAGUGUGUGUGCACAUGUUA	1.3 ratio
AUUCAAGCCCGUCGUGCCCUGGCCUCAUGUCGAAGGCGUAGAAGUGGACUUGGAGUCUAUUAGAAGGAAAAACAAGGCCGGACCGGAGCAGGAGCGCCGCGCUGGGGGAGGGGACAACCA	0.557 ratio
AUCCCUCAGUGACAGUAUGCCAUCUGUAGCAGAUUCUCACUCUAGUCAUUUUUCUGAAUUUAGUUGUUCUGACCUAGAAAGCAUGAAAACUUCUUGCAGUCAUGGUUCCAAUGAUUAUCA	1.59 ratio
UGUAUGUAGAGAAAAUUUUUCAUUGACCCCCCCCAUUGUGAAACUCCAUAGCAGUUUAUUUAGAAUCUUAAUUUUUCUAAUACAAGCUCACUGUAUUAGUCAUUUUAGCCCAUAAUUAAA	3.18 ratio
CUCCCCGUCACUGUGAUGUUUAAAAUAUGCACAGUCCUAAUUUUGUUUCCUAAAUGAUUCUAGUAAUUUCCUAGCAAUAGCUCUAUCUUACCUGUUAUUUAUCAAUUUCCCCCCCAGGGU	2.44 ratio

Sample 3 — technique: protein binding microarray; form: double-stranded DNA, one strand shown; matrix: in vitro; concentration: not given; relative to: not given; direction: higher = stronger binding
Target: Histone acetyltransferase KAT6A, winged helix 1, GST fusion (KAT6A, Homo sapiens, UniProt Q92794, residues 1-85)
Setting: 8-mer, flanks averaged, mean of 2 arrays, mostly near background
Residues (chain): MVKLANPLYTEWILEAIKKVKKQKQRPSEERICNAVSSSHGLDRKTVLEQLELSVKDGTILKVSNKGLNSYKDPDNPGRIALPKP
Oligonucleotide	E-score
CATCTATC	-0.0203
CACACTGA	-0.376
AGGACTAG	-0.125
CTCTTGCA	-0.197
AGTGATCG	-0.0253
ATGTAGAA	-0.0724
ATTCTGTC	-0.0431
CAGATAAG	-0.112
AATGCAGC	-0.172
ATCGTCAA	-0.0876
AGCAAGAC	-0.027
ACGCGCTC	0.356
CTCTATAA	-0.162
CGATCGTA	-0.113
AGGGGTCG	-0.044
ACGCGCGT	0.449
CTCCGCTA	0.273
GCTTCGAC	-0.00055
AAGCGTCT	0.162
AGTACATG	-0.135
AACAAGCA	-0.17
CGTAACTA	0.165
ACGACTAC	-0.0751

Sample 4 — technique: RNA Bind-n-Seq; form: RNA; matrix: in vitro; concentration: 1 µM; setting: whole 134-nt RNA, ends assumed; added: 150 mM KCl; relative to: input library; direction: higher = stronger binding
Target: Ras GTPase-activating protein-binding protein 1, C-terminal RGG region (G3BP1, Homo sapiens, UniProt Q13283)
Sequence of UniProt Q13283 (whole entry, looked up): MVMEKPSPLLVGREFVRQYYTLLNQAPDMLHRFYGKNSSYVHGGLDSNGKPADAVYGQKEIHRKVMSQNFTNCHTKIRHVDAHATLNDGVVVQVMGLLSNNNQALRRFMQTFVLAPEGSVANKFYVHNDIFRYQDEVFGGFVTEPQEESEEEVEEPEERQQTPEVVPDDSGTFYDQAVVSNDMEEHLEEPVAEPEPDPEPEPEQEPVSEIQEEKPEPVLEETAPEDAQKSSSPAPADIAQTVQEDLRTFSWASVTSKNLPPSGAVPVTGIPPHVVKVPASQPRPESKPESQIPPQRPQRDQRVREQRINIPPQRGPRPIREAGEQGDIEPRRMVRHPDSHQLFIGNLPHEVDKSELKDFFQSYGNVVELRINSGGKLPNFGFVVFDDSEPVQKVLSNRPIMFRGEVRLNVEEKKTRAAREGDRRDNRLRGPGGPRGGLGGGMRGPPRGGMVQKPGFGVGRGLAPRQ
Shared flanks, not repeated: GGGAGUUCUACAGUCCGACGAUC … UGGAAUUCUCGGGUGUCAAGG
Oligonucleotide	log2 enrichment
UGGCCCUGGUGGCAUGCGGGGAGGAAGAGGAGGCCUCAUGGAUCGUGGUGGUCCCGGUGGAAUGUUCAGAGGUGGCCGUGGUGGAGACAG	2.53
GUCCUGUGCUACACAUCGUAUGUACCGAAUCGGGGAGGGGAAAAAAAGGGGAAAGGGGAAAGUAUUAUGUUACGCCGUUCGGAUCUGCAC	2.49
GUCCUGUGCUACACAUCGUAUGUACCGAAUCGGGGUUUUUGGGGUUUUUGGUUUUUGGGAAAGUAUUAUGUUACGCCGUUCGGAUCUGCA	-0.901
UUUCUGUGUGCUUAGGUGCCCGAGCUACUGAGGGUCUAAGUCCGGGCAGCCGAAGAGUGUGGUAGGUAACGGUCCUCAGCGCAAGGGUCA	-0.449
CCUCAAGUCCUGUGCUACACAUCGUAUGUACCGAAUCGGUUUGGUUUGGAGGAAAGUAUUAUGUUACGCCGUUCGGAUCUGCACUUCCAG	-0.717
UCCCGACAUCUGUGGCCCUGGCACCAAGAAGGUUCAUGUCAUCUUCAACUACAAGGGCAAGAACGUGCUGAUCAACAAGGACAUCCGUUG	-0.239
ACCAUGCAGGUGGGCAUCUUUGGGAAGUGGGGCAAGGGGGGGAUAGGGAGGGGGGUAACACUUUGGGAACCGGUGGUCCCAGGUCGUUUC	2.03
UUUAUCAUGAGGAGCUCAACGCGCCCAUACGGAGAAACAAAGAAGAGCCCAAGGCCCGGCCCUUGAGAGUAGGUGACACGGAGAAGCCAG	-1.93
GUCCUGUGCUACACAUCGUAUGUACCGAAUCGGUUUUUUGGUUUUUUGGUUUUUUGGGGAAAGUAUUAUGUUACGCCGUUCGGAUCUGCA	-1.52
GUCCUGUGCUACACAUCGUAUGUACCGAAUCGGGUUUUUUUGGGAAAAAAAGGGAGGGAAAGUAUUAUGUUACGCCGUUCGGAUCUGCAC	-0.105
UGGGAGGUGGAUUUUGUUUAUUUUUUUAGCUUAUUUCCAGGGGUGGGAAUUUUUUUUUAAUAUGUGUCAUGAAUAAAGUUGUUUUUGAAA	3.52
GUCCUGUGCUACACAUCGUAUGUACCGAAUCGGGAAAGGGUUUUUGGGAAAAAAAGGGAAAGUAUUAUGUUACGCCGUUCGGAUCUGCAC	-0.627
UCAAGUCCUGUGCUACACAUCGUAUGUACCGAAUCGGAAAGGGGAAAGGAAAGGAAAGUAUUAUGUUACGCCGUUCGGAUCUGCACUUCC	-1.48
GUCCUGUGCUACACAUCGUAUGUACCGAAUCGGGGAAAGGGGUUUGGGGUUUUUGGGGAAAGUAUUAUGUUACGCCGUUCGGAUCUGCAC	3.12

Excerpt of the above (sample 1):
Oligonucleotide	log fluorescence [z-score]
TTAGATTTAGGGTATCGATTAGTGCTA	0.445
TTAGGACTGGGGTATCGGTGAGTGCTA	-0.462
TTAGGTTTCCTCATCCTTTAGTGCTAG	1.42
GACGGTTTCGGTTCCGGGATGTGCTAG	12.5
TTGGGTCTCCTTTTCCTTTAGTGCTAG	1.57
TTAGATCTCGGTCTCGATTAGTGCTAG	1.58
